{"data": "Measurements collected from several papers", "B1": "protein 1-735 R432A (UniProt C7Z7K1); chain MSNLKDFSQPGSGQESNFGVDFVIHYKVPAAERDEAEAGFVQLIRALTTVGLATEVRHGENESLLVFVKVASPDLFAKQVYRARLGDWLHGVRVSAPHNDIAQALQDEPVVEAERLRLIYLMITKPHNEGGAGVTPTNAKWKHVESIFPLHSHSFNKEWIKKWSSKYTLEQTDIDNIRDKFGESVAFYFAFLRSYFRFLVIPSAFGFGAWLLLGQFSYLYALLCGLWSVVFFEYWKKQEVDLAVQWGVRGVSSIQQSRPEFEWEHEAEDPITGEPVKVYPPMKRVKTQLLQIPFALACVVALGALIVTCNSLEVFINEVYSGPGKQYLGFLPTIFLVIGTPTISGVLMGAAEKLNAMENYATVDAHDAALIQKQFVLNFMTSYMALFFTAFVYIPFGHILHPFLNFWRATAQTLTFSEKELPTREFQINPAAISNQMFYFTVTAQIVNFATEVVVPYIKQQAFQKAKQLKSGSKVQEDHEEEAEFLQRVREECTLEEYDVSGDYREMVMQFGYVAMFSVAWPLAACCFLVNNWVELRSDALKIAISSRRPIPWRTDSIGPWLTALSFLSWLGSITSSAIVYLCSNSKNGTQGEASPLKAWGLLLSILFAEHFYLVVQLAVRFVLSKLDSPGLQKERKERFQTKKRLLQENLGQDAAEEAAAPGIEHSEKITREALEEEARQASIRGHGTPEEMFWQRQRGMQETIEIGRRMIEQQLAAGKNGKKSAPAVPSEKAS", "B2": "Csm3 1-214 D32A (Enterococcus italicus, UniProt E6LHV5); chain MYSKIRIVGKIDVLTGLHIGGGGETSMIGAIASPVVRDPYSRLPIIPGSSIKGKMRSLLAKHIGLIPGQKMHNQDAPEILRLFGSSQKGAIQSSRLQISDAFFSKASQEEFDKKDLAYTETKFENTISRLTAVANPRQIERVTRGASFDFHIIYNVENINEVMADFENIKTAIHLLENDYLGGGGTRGNGRIRFVIDSIDTVVGDFDSSNLSIK", "B3": "pomB 1-315 (Vibrio alginolyticus, UniProt O06874); chain MDDEDNKCDCPPPGLPLWMGTFADLMSLLMCFFVLLLSFSEMDVLKFKQIAGSMKFAFGVQNQLEVKDIPKGTSIIAQEFRPGRPEPTPIDVIMQQTMDITQQTLEFHEGESDRAGGTKRDEGKLTGGQSPATSTQNNESAEADMQQQQSKEMSQEMETLMESIKKALEREIEQGAIEVENLGQQIVIRMREKGAFPEGSAFLQPKFRPLVRQIAELVKDVPGIVRVSGHTDNRPLDSELYRSNWDLSSQRAVSVAQEMEKVRGFSHQRLRVRGMADTEPLLPNDSDDNRALNRRVEISIMQGEPLYSEEVPVIQ", "B4": "BvgA full length, non-phosphorylated C93A/C103A/S96C/T194C (Bordetella pertussis, UniProt P0A4H2); sequence looked up; chain MYNKVLIIDDHPVLRFAVRVLMEKEGFEVIGETDNGIDGLKIAREKIPNLVVLDIGIPKLDGLEVIARLQSLGLPLRVLVLTGQPPSLFARRALNCGAAGFVAKHENLHEVINAAKAVMAGYTYFPSTTLSEMRMGDNAKSDSTLISVLSNRELTVLQLLAQGMSNKDIADSMFLSNKTVSTYKTRLLQKLNACSLVELIDLAKRNNLA", "B5": "gpE major capsid protein (bacteriophage lambda, UniProt P03713); sequence looked up; chain MSMYTTAQLLAANEQKFKFDPLFLRLFFRESYPFTTEKVYLSQIPGLVNMALYVSPIVSGEVIRSRGGSTSEFTPGYVKPKHEVNPQMTLRRLPDEDPQNLADPAYRRRRIIMQNMRDEELAIAQVEEMQAVSAVLKGKYTMTGEAFDPVEVDMGRSEENNITQSGGTEWSKRDKSTYDPTDDIEAYALNASGVVNIIVFDPKGWALFRSFKAVKEKLDTRRGSNSELETAVKDLGKAVSYKGMYGDVAIVVYSGQYVENGVKKNFLPDNTMVLGNTQARGLRTYGCIQDADAQREGINASARYPKNWVTTGDPAREFTMIQSAPLMLLADPDEFVSVQLA", "B6": "panD R99A (Mycobacterium abscessus, UniProt B1MGV7); chain MMFRTMMKSKIHRATVTHADLHYVGSVTIDPDLMEAADLLEGEQVTIVDIDNGARLETYAITGTRGSGVIGINGAAAHLVHPGDLVIIIAYGVMTDEEAAAFTPRVVFVDSDNKQVELGEHSDDPAYVPENFGLVSPRGLV", "B7": "sduA 171-380 E264A (Bacillus cereus, UniProt B7HFR2); chain KEQDLDQLNTLIGIANLKKVLSVWESNKLTNTSEKFWQSVLKENTWILSQIFSNPTVLINDEAYVGGKTVKNDSGKLVDFLYANPFSKDAVLIAIKTPSTPLITPTEYRTGVYSAHKDLTGAVTQVLTYKTTLQREYQNIDYNNYRQGIKTDFDIITPCCVVIAGMFDTLTDTAHRHSFELYRKELKNVTVITFDELFERVKGLIKLLEG", "B8": "panD Y126A (Mycobacterium abscessus, UniProt B1MGV7); chain MMFRTMMKSKIHRATVTHADLHYVGSVTIDPDLMEAADLLEGEQVTIVDIDNGARLETYAITGTRGSGVIGINGAAAHLVHPGDLVIIIAYGVMTDEEARAFTPRVVFVDSDNKQVELGEHSDDPAAVPENFGLVSPRGLV", "B9": "Rep68 1-490 C151S (Adeno-associated virus 2, UniProt P03132); sequence looked up; chain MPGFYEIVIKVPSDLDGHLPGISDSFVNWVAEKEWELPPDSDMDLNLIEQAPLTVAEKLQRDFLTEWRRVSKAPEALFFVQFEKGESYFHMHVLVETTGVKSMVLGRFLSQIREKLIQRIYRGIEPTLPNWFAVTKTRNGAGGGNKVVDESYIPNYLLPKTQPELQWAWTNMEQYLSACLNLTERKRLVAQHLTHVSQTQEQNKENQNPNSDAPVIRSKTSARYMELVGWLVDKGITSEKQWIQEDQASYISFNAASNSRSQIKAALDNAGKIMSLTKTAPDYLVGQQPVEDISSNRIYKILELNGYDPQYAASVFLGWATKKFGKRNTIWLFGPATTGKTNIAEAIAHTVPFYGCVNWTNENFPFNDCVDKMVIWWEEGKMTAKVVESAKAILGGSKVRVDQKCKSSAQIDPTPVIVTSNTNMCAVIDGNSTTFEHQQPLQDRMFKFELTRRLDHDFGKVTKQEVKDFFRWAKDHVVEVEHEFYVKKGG", "B10": "mpr (Mycobacterium smegmatis, UniProt Q50442); chain MTTPQPYPGMPSQPAPQGVPYPPQQPAKKKRKWPAIVGGVIALMIVGSIFNDDKKDTTPAENTATVAQAPAAAPTKEVPETTATINTPVRDGKFEFVVRSVEPGLSEVGDNPFLNQKAQGQFVIVTLSVQNIGDRPQGFSPSNQKLFDTEGRSFETDTSAQIALDNNDIAVWDNINPGNTVDVSLVYDMPVDAVPASIELHDSMFSGGVTVNLTP", "B11": "ilvA 1-422 (Staphylococcus aureus, UniProt Q2FF63); sequence looked up; chain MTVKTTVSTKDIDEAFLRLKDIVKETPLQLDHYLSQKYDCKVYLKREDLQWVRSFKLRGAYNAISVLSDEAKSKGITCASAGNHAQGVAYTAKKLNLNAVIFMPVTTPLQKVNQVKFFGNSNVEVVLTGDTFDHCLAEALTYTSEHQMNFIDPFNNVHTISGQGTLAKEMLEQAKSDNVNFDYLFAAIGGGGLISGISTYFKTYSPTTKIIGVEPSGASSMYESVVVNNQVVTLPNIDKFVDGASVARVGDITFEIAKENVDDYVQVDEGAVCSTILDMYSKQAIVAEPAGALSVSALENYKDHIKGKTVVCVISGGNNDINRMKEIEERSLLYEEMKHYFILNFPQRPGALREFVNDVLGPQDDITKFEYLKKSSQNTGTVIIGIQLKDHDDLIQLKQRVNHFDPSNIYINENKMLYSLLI", "B12": "pyrE (Burkholderia cenocepacia, UniProt B4E589); sequence looked up; chain MTGYDRQSISDTTAKILLEVQAVHFNAEKPFIFTSGWASPVYIDCRKLISYPRVRRALMEMAETTITRDIGFEQIDAVAGGETAGIPFAAWIADRMMVPMQYVRKKPKGFGRNAQIEGHLEEGSRVLLVEDLTTDSRSKINFVNALRTAGATVNHCFVLFHYNIFKESVSVLKDIDVDLHALATWWDVLRVAKASGYFETKTLDEVEKFLHAPAEWSAAHGGATAPKE", "note": "Several values in a cell are separate wells, animals, samples, runs or records."}
{"Substance": "B1 (protein 1-735 R432A)", "target or system": "itself", "assay": "cryo-EM", "measurement": "subunits per oligomer", "value": 2}
{"Substance": "B2 (Csm3 1-214 D32A)", "target or system": "itself", "assay": "cryo-EM", "measurement": "subunits per oligomer", "value": "3 and 4"}
{"Substance": "B3 (pomB 1-315)", "target or system": "itself", "assay": "cryo-EM structure", "measurement": "subunits per oligomer", "value": 2}
{"Substance": "B4", "target or system": "itself", "assay": "cross-linking", "measurement": "subunits per oligomer", "value": 2}
{"Substance": "B5 (gpE major capsid protein)", "target or system": "itself", "assay": "cryo-EM", "measurement": "subunits per oligomer", "value": 415}
{"Substance": "insulin human", "assay": "measured: KALRN mRNA", "test system": "EcoHIV-infected mouse, brain", "conditions": "i.p., dose not given", "how to read": "baseline: PBS", "measurement": "fold change", "value": 1.07}
{"Substance": "B6 (panD R99A)", "target or system": "itself", "assay": "native gel", "measurement": "subunits per oligomer", "value": 4}
{"Substance": "RMKQIEDKIEEIESKQKKIENEIARIKKLLQLTVWGIKQLQARIL (peptide)", "target or system": "itself", "assay": "crystal structure", "test system": "peptide", "measurement": "subunits per oligomer", "value": 3}
{"Substance": "B7 (sduA 171-380 E264A)", "target or system": "itself", "assay": "SEC-MALS", "measurement": "subunits per oligomer", "value": 8}
{"Substance": "B8 (panD Y126A)", "target or system": "itself", "assay": "native gel", "measurement": "subunits per oligomer", "value": 4}
{"Substance": "B9 (Rep68 1-490 C151S)", "target or system": "itself", "assay": "cryo-EM", "measurement": "subunits per oligomer", "value": 7}
{"Substance": "B10 (mpr)", "target or system": "itself", "assay": "SEC", "measurement": "subunits per oligomer", "value": 20}
{"Substance": "B11 (ilvA 1-422)", "target or system": "itself", "assay": "SEC-MALS", "measurement": "subunits per oligomer", "value": 6}
{"Substance": "B12 (pyrE)", "target or system": "itself", "assay": "crystal structure", "measurement": "subunits per oligomer", "value": 6}
{"note": "Repeated from above:"}
{"Substance": "B1 (protein 1-735 R432A)", "target or system": "itself", "assay": "cryo-EM", "measurement": "subunits per oligomer", "value": 2}
